Assay results of several laboratories.
Each numbered part is a random draw from the data of one study; scales do not carry over between parts. Positions count from the first letter of the parent shown.

Study 1
Target: RING finger protein unkempt homolog, zinc fingers 1-6, GST-SBP tag (UNK, Homo sapiens, UniProt Q9C0B0, residues 30-357)
UniProt Q9C0B0, sequence (30-357, looked up): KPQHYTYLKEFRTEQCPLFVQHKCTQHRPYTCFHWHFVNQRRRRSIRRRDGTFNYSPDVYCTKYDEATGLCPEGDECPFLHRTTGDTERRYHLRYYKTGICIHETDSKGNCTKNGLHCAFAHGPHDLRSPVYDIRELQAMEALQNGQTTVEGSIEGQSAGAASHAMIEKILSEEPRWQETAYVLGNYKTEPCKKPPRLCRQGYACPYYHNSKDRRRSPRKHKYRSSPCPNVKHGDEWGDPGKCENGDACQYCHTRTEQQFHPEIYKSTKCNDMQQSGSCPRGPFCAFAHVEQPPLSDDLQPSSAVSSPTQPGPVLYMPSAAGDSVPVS
Technique: RNA Bind-n-Seq
Molecule type: RNA
Sample: in vitro
Concentration: not given
Setting: RNA with constant flanks, ends assumed
Reference: input RNA pool
Direction: higher = stronger binding
Shared flanks, not repeated: GGGAGUUCUACAGUCCGACGAUC … CAACAGAGGAUUGAGCAUCA
| Sequence | bound/input enrichment [ratio] |
| --- | --- |
| GUUUGAGCCUAGCAAUUGCAGAACUCAUAAAAUUGCUUGUGAAAUUACACACCAUAUUACCCGCAUAUACAUUGCAGUGCUCCAAUCAUGCUAACAGAUAAUAGAUUUUUCUUUAAGAAU | 0.64 |
| GAGGAGAGGAAGGCAUCUUGUACGUCGUUACAUUUAUCAUAUUGGAAGUCCCUUAAGCUCCCCGGAUUUUUAGAUGUUGAAAAUACUCCCUGCGCCCGGCAUUCAAUAUUGUAUGGUUCA | 0.303 |
| UCUCAGACUCCAGCUUCCAGCCCUACGUUCUUCCAGGCAGAGCUAUGGAUCAAAGAAUUAACCCGCGUUUAUGACUCUCGAGCUCGGGAAAGAUUGCGCCGGAUUGAAGAGCAGAAAGCA | 0.284 |
| CAAACAUGGCCUCAUUGGAAAGGACCAGCCAGGUCUGGUGUGGAGGUCCUAUUUAAUGAAUCCGAAAUUCCCGUGGAAGAAUACUCCUUUGGUAGAUCAAAGAUAUUCAUCCGAAACCCA | 0.12 |
| UUCGACUUUCUUUGCCAGUACCAUAAACCAGCAAGCAAGAUUCCUGCUUUCCUAAAUGCCGUGGAUAUUGCUGGCCUUGUAAAAGGAGCUCACAAUGGGCAGGGCUUGGGGAAUGCCUUU | 0.111 |
| GAUCAGAGCUGAUCAACUCCUUUAGGAUUGCCUGUGGAGGAUACCUUCAGUCGAAGUUUUUUCCGCCCUCACUGAGCUACUUCCAAGUUUGGAAGUACUUAGUGACCUUGGUGAGUUUCU | 0.567 |
| UGUGUGAUGCUUGUCUCUAAUUUGCCUAAUAAAGGAUAUUCUGUAGAAGAAGUUUAUGACUCCGCAAAACCAUUUGGUGGUUUAAAGGAUAUCUUGAUUUUAUCAUCUCAUAAAAAGGCA | 0.377 |
| AAAGCCCUUAAAGCCAAGAAGGAAGAUGGGAAUAAAGCCUUUAAGGAAGGAAAUUACAAGCCCGCAUAUGAACUGUACACAGAAGCCUUGGGGAUAGAUCCCAACAACAUAAAAACAAAU | 0.223 |

Study 2
Target: Histone acetyltransferase KAT6A, winged helix 2, GST fusion (KAT6A, Homo sapiens, UniProt Q92794, residues 85-181)
Technique: protein binding microarray
Molecule type: double-stranded DNA, one strand shown
Sample: in vitro
Concentration: not given
Setting: 8-mer, flanks averaged, mean of 2 arrays, mostly near background
Reference: not given
Direction: higher = stronger binding
Construct (chain): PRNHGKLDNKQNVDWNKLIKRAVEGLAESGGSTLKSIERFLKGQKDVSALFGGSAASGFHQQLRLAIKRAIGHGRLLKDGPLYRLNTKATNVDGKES
| Sequence | E-score |
| --- | --- |
| AGGTGGTC | -0.102 |
| GGTTAGAA | -0.212 |
| CGACCTCA | 0.12 |
| ACCAAACA | 0.0462 |
| ACCGCGCC | 0.125 |
| CCGTGAGC | 0.0447 |
| TAGGATAA | -0.0959 |
| GTCTAAGA | 0.0826 |
| AATGGCAC | -0.142 |
| TATTGAGA | 0.0882 |
| CAGAGTCG | -0.173 |
| ACCGGCTA | -0.0271 |
| GTGTTCCA | -0.0814 |
| CCCGAAAA | 0.106 |
| CTTAACAA | -0.0413 |
| TCACCGGA | 0.0136 |
| CTACGGGA | -0.057 |
| ATTGTATC | -0.0243 |
| CTACGGAC | -0.228 |
| CCGAAGCA | 0.121 |
| AGTTAGTG | -0.0227 |

Study 3
Target: CCND2, cyclin fold, Cln2 fusion (human)
Technique: yeast growth competition, sequencing
Sample: yeast
Setting: weak parent motif
Reference: not given
Direction: higher = stronger binding
Starting sequence: CDC6 docking peptide (human); TLKGRRLVFDNQL; partner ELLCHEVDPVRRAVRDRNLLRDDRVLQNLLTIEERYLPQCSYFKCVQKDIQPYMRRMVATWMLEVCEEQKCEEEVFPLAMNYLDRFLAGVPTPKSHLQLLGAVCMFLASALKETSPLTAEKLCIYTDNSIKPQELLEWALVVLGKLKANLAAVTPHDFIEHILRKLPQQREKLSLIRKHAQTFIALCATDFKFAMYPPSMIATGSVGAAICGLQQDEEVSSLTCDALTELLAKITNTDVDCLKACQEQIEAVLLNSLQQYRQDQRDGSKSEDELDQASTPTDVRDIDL
| Change | normalised enrichment score |
| --- | --- |
| Q12T | 0.132 |
| F9Y | -0.175 |
| N11S | 0.166 |
| K3D | -0.162 |
| K3P | 0.313 |
| R6Y | 0.244 |
| L2W | 0.444 |
| R5D | -0.328 |
| Q12A | 0.546 |
| N11W | 0.491 |
| F9K | 0.597 |
| V8T | 0.627 |
| D10E | -0.573 |
| N11R | 0.476 |
| R5K | 0.0303 |
| L7D | -0.175 |
| L7I | 0.635 |

Study 4
Target: ABI1, truncated, D143A, DHFR fusion (Arabidopsis thaliana)
Technique: DHFR PCA, deep sequencing
Sample: yeast
Setting: methotrexate growth selection, single substitutions
With: (+)-ABA 17 µM
Reference: wild-type fitted maximum
Direction: higher = stronger binding
Starting sequence: PYL1, truncated, DHFR fusion (Arabidopsis thaliana); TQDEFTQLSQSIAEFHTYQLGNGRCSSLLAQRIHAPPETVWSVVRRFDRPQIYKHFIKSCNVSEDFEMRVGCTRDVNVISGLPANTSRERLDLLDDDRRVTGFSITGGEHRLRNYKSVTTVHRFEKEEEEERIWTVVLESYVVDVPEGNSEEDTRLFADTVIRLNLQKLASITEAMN; partner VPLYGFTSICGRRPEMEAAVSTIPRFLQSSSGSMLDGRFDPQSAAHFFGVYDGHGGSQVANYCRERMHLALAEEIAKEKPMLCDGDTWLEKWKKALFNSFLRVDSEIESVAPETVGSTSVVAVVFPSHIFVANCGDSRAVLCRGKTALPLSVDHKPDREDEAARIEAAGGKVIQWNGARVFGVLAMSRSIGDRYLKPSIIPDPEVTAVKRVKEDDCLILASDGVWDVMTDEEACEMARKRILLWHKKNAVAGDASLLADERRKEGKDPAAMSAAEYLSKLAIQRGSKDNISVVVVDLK
| Change | relative binding score [%] |
| --- | --- |
| E14Y | 36.1 |
| T160N | 60.7 |
| R46S | 68.9 |
| T173F | 50.6 |
| E125A | 90.2 |
| G21H | 84.3 |
| Q19Y | 73.5 |
| E139A | 31.6 |
| D65K | 79.8 |
| G102K | 27.9 |
| C72T | 67.2 |
| V78C | 74.6 |
| R155C | 70.3 |
| H110W | 37.8 |
| L28D | 12.2 |
| E152C | 70.5 |
| Y141L | -11.9 |
| F47K | -7.93 |
| F15L | 56.2 |
| V145T | 62 |
| E67D | 79.7 |
| E131N | 94.4 |
| T160Q | 36.7 |
| D144W | -4.68 |

Study 5
Target: RNA binding protein fox-1 homolog 2, RRM domain, GST-SBP tag (RBFOX2, Homo sapiens, UniProt O43251-10, residues 100-194)
Technique: RNA Bind-n-Seq
Molecule type: RNA
Sample: in vitro
Concentration: 365 nM
Setting: natural RNA segment, single round, ends assumed
Reference: no-protein control
Direction: higher = stronger binding
Shared flanks, not repeated: GGGAGUUCUACAGUCCGACGAUC … UGGAAUUCUCGGGUGCCAA
Target sequence (chain): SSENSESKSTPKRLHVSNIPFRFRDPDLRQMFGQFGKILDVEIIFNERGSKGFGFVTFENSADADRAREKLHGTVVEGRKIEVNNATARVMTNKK
| Sequence | RBNS enrichment (R) |
| --- | --- |
| UGACAGUGUGCAUCACCUCUGGGCCAAGGACAAGCCAUUGAUCUAAAUGCCUCAGAUGCCCGGGAGGGCCUCUGGUGCCACUGCAUAGUAUAUACUAACAUCAUUCUGCC | 0.561 |
| GUCCUUUCUGGGACCUGUCUGCAUAACCCUCCCCAUCCUGGCUCUCCUGCAUCUUCUUACCCUUUACAAAGUCUGACCCGGCCAUUUCCAGCAGACCUGUGAGCCAGCCA | 1.19 |
| CCUAUAGUUCCAUCAAAUUCUUUCUUUCCCUUCUUGACAUUGUCCCCCAAACCCUCAUUUUGCAGAAACACUAGGUCUGUGGAGUAGGUUGUGAUUCUGGGGUCUCUUCA | 0.763 |
| AACUGAUCUCCCCCACCCUUGGAUUAGAGUUCCUGCUCUACCUUACCCACAGAUAACACAUGUUGUUUCUACUUGUAAAUGUAAAGUCUUUAAAAUAAACUAUUACAGAU | 0.233 |
| CUUCUGUGUUGUGUGCAGAGACUGCACAGUAAAACAGUCACUUUUGCCAACAAGAAUGUGUGGCGCCCCACAUCUCCCUACCUUGCACUCUAGGGCCAGACCACUCUCUG | 0.623 |
| CCAUGGGCUGCUGCUUCCUCUUGCCUUAAAAGUACACUCUCCAGGUGUGUCAGGGACUCUGUUUACUUGAAGACUGUGUGCAGUUGCCAGUUCGUCUCCCUGCUGUCUUU | 0.379 |
| UUCACUCAAGGCUUUGUUUCCAGAGGCCAGCUAGGCUGUCACAGGCAGGAAUCCCUUCCCAUCUGCUUUGUGAAGGGUCCCAUACAGGUGUAUCUAGACUUCAAGGACAG | 0.39 |
| CAAAUUUCUGUGUUUUUUGUUUGUUUGUUUGUUUGUUUUUUCUUUGGGAACUGAAGUCAGAGGCACGAACACUAACUCUUAGCAUUUUUCUGUAGACUUUUUCUUCUGGC | 1.29 |
| GUGAAGAAAUGGAUAUGUUAUAUAUUUCUGCUACCUGGAUUUUCCUGGGUAAUUUGAUGGAAUAUUUUACGUUUGAUUAAAUCAAAACAGUAAACACUCUCUUAGAUACU | 0.311 |
| CAGCAGAAGCUUGUAGGAUGAGUGUGUCGGGGCUUAAAUACUAGACAGUUCCAAUGAGAUAACACUAUCAGCUUGUCUGGUAGAGCACCCCCUGCCUCACAUGGGGAGCA | 0.649 |
| CUACUGUUCAUUGUAAAGGGUCAGGCCCUAUCAGCAGCACUGAUGGGAAUAAAAGUAUUAUUGCUUUGAUGGCGUUUGUCUCAGCAAGUCUGUAGUACAUAUCCCCACUA | 0.272 |
| AUACCCCACUGCUGCCCGACACUGCCCUUUAGCUGCAGAGCUGGAUUAGCUGUUGACCAUUUGAUGCUGUUGUCUGUCUGGCAGGGACUGAAUGACCUGAUGUCAGAUUU | 0.416 |

Repeated from above (study 5):
| Sequence | RBNS enrichment (R) |
| --- | --- |
| CAAAUUUCUGUGUUUUUUGUUUGUUUGUUUGUUUGUUUUUUCUUUGGGAACUGAAGUCAGAGGCACGAACACUAACUCUUAGCAUUUUUCUGUAGACUUUUUCUUCUGGC | 1.29 |
| UUCACUCAAGGCUUUGUUUCCAGAGGCCAGCUAGGCUGUCACAGGCAGGAAUCCCUUCCCAUCUGCUUUGUGAAGGGUCCCAUACAGGUGUAUCUAGACUUCAAGGACAG | 0.39 |
| AUACCCCACUGCUGCCCGACACUGCCCUUUAGCUGCAGAGCUGGAUUAGCUGUUGACCAUUUGAUGCUGUUGUCUGUCUGGCAGGGACUGAAUGACCUGAUGUCAGAUUU | 0.416 |
| CCUAUAGUUCCAUCAAAUUCUUUCUUUCCCUUCUUGACAUUGUCCCCCAAACCCUCAUUUUGCAGAAACACUAGGUCUGUGGAGUAGGUUGUGAUUCUGGGGUCUCUUCA | 0.763 |
| AACUGAUCUCCCCCACCCUUGGAUUAGAGUUCCUGCUCUACCUUACCCACAGAUAACACAUGUUGUUUCUACUUGUAAAUGUAAAGUCUUUAAAAUAAACUAUUACAGAU | 0.233 |
| CCAUGGGCUGCUGCUUCCUCUUGCCUUAAAAGUACACUCUCCAGGUGUGUCAGGGACUCUGUUUACUUGAAGACUGUGUGCAGUUGCCAGUUCGUCUCCCUGCUGUCUUU | 0.379 |
| GUCCUUUCUGGGACCUGUCUGCAUAACCCUCCCCAUCCUGGCUCUCCUGCAUCUUCUUACCCUUUACAAAGUCUGACCCGGCCAUUUCCAGCAGACCUGUGAGCCAGCCA | 1.19 |
| CUACUGUUCAUUGUAAAGGGUCAGGCCCUAUCAGCAGCACUGAUGGGAAUAAAAGUAUUAUUGCUUUGAUGGCGUUUGUCUCAGCAAGUCUGUAGUACAUAUCCCCACUA | 0.272 |
| CAGCAGAAGCUUGUAGGAUGAGUGUGUCGGGGCUUAAAUACUAGACAGUUCCAAUGAGAUAACACUAUCAGCUUGUCUGGUAGAGCACCCCCUGCCUCACAUGGGGAGCA | 0.649 |
| GUGAAGAAAUGGAUAUGUUAUAUAUUUCUGCUACCUGGAUUUUCCUGGGUAAUUUGAUGGAAUAUUUUACGUUUGAUUAAAUCAAAACAGUAAACACUCUCUUAGAUACU | 0.311 |
| UGACAGUGUGCAUCACCUCUGGGCCAAGGACAAGCCAUUGAUCUAAAUGCCUCAGAUGCCCGGGAGGGCCUCUGGUGCCACUGCAUAGUAUAUACUAACAUCAUUCUGCC | 0.561 |
| CUUCUGUGUUGUGUGCAGAGACUGCACAGUAAAACAGUCACUUUUGCCAACAAGAAUGUGUGGCGCCCCACAUCUCCCUACCUUGCACUCUAGGGCCAGACCACUCUCUG | 0.623 |
